# Measurements from different studies.
# Compare with care: the assays were run in different laboratories. Values joined by “and” are separate records of one study, mostly repeats; a detail may differ. Numbers after ± are the reported error.
SMILES,test,test system,conditions,plasma concentration
[2H]C([2H])(N)C([2H])([2H])NC(=O)c1cc(C2CC2)nc2c1cnn2C(C)C,,"mouse BALB/c female, plasma","intraperitoneal, 50 mg/kg, 1 h",2460 ng/mL and 2630 ng/mL and 2610 ng/mL and 2690 ng/mL
C=CC(=O)N1CCCC(n2c(=O)c3ncccc3n(Cc3ccc(Oc4ccccc4)cc3)c2=O)C1 (stereo not shown),,"male BALB/c mouse, plasma","intraperitoneal, 200 mg/kg, 0.25 h",67900 ng/mL
O=C1C2CC3CC1CC(C(=O)N1CCN(c4ccc([N+](=O)[O-])c5ncccc45)CC1)(C3)C2,,"ICR mouse, male","oral, 5 mg/kg, 2 h",7.61 ng/mL
Cc1ccc(OCC(=O)N(Cc2cccs2)c2ccn[nH]2)cc1,,"mouse, CD-1, male, plasma","oral, 30 mg/kg, 1 h",221 nM
Cc1nn(-c2nc3c(F)cc(F)cc3s2)c(O)c1C(c1ccc(C(F)(F)F)cc1)c1c(C)nn(-c2nc3c(F)cc(F)cc3s2)c1O,,ICR mouse,"oral, 50 mg/kg, 24.0 h",509 ng/mL and 2880 ng/mL and 226 ng/mL
C=CC(=O)N1CCC[C@@H](c2ccc(C(N)=O)c3[nH]ccc23)C1,,"mouse, TMD8 tumour-bearing, plasma","15 mg/kg twice daily, 8 h",12.6 ng/mL
CCC(=O)N(C)c1ccc(Cl)c(Cl)c1,LC-MS/MS,"female C57BL/6 mouse, plasma","oral, 10 mg/kg, 4 h",not detected
CC(C)n1ncc2c(C(=O)NC[C@@H](C)N)cc(C3CC3)nc21,,"mouse BALB/c female, plasma","intraperitoneal, 30 mg/kg, 8 h",204 ng/mL and 210 ng/mL and 169 ng/mL and 192 ng/mL
O=C1CCC(N2Cc3cc(C(=O)O)c(F)cc3C2=O)C(=O)N1 (stereo not shown),,"CD-1 mouse, male","oral, 10 mg/kg parent drug, 4 h",42.7 ± 24.2 ng/mL
CC1(C)CC[C@@]2(CO)C(=C3C=C[C@@H]4[C@@]5(C)CC[C@H](O)[C@@](C)(CO)[C@@H]5CC[C@@]4(C)[C@]3(C)C[C@@H]2O)C1,UHPLC-MS/MS,"mouse, plasma","oral, 50 mg/kg of saikosaponin a, 0.5 h",0 ng/mL

# Repeated from above:
SMILES,test,test system,conditions,plasma concentration
O=C1C2CC3CC1CC(C(=O)N1CCN(c4ccc([N+](=O)[O-])c5ncccc45)CC1)(C3)C2,,"ICR mouse, male","oral, 5 mg/kg, 2 h",7.61 ng/mL
